Experimental data gathered from unrelated publications.
Protocols differ between the studies behind these lines.
Target: Beta-1 adrenergic receptor (ADRB1, Homo sapiens, UniProt P08588)
UniProt P08588, sequence (whole entry, looked up): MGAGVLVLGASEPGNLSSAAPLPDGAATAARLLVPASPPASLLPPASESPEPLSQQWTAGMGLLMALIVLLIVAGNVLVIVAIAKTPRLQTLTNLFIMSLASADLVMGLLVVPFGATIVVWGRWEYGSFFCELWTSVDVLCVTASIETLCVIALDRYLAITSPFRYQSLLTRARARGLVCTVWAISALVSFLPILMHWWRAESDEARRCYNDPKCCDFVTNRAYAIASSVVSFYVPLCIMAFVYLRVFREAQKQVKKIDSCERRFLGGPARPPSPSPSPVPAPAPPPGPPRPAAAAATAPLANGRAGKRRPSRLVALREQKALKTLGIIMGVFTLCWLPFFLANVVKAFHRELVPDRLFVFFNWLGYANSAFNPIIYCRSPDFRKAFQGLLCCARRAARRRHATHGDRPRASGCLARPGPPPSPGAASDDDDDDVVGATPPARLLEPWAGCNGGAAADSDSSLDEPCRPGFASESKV

Structure (SMILES)	observed	action	method	cells	concentration	inhibition [%]
COc1ccc(C#CC2=C[C@H]3C[C@@]4(OC(=O)C=C24)[C@H]2CC[C@H](C(OC)OC)N32)cc1	ligand displacement		radioligand		10 µM	5
O=C1c2sc(-c3ccc(N4CCC(CO)CC4)nc3F)nc2CCN1c1cccnc1	ligand displacement		radioligand		1 µM	-5
COc1ccc(C(=O)Nc2c(-c3cccs3)nc3ccccn23)cc1	ligand displacement		radioligand		10 µM	< 50
Brc1ccccc1-c1nnc(CSc2nnnn2-c2ccccc2)o1	ligand displacement		radioligand		10 µM	7
Cc1[nH]nc2c1N=C(c1ccccc1Cl)c1cnc(N3CCOCC3)cc1N2	cell-free assay				10 µM	8
CNC(=O)C[C@H](Cc1ccc(C#N)cc1)NC(=O)c1cc(-c2ccc(CN[C@H](C)c3ccc(C)cc3)o2)ccc1Cl	agonist response	antagonist		1	10 µM	-23
CO[C@@H](C)c1c(NC(=O)Nc2cnc(-n3nccn3)c(C(F)(F)F)c2)cnc2sc(C)nc12	ligand displacement		radioligand		10 µM	3.8
Cn1ccc2cc(-n3c(=O)[nH]c4sc5c(c4c3=O)CCCC5)ccc21	cell-free assay		radioligand		10 µM	-7
CCC(=O)N(C)c1ccc(Cl)c(Cl)c1	ligand displacement		radioligand		10 µM	< 10
C[Si](C)(C)C[C@@H](CN)CC(=O)O	cell-free assay	inhibitor			75 µM	-8
COCC(=O)N1CCc2cc(-c3csc(NC(=O)c4cc(OC)cc(OC)c4)n3)ccc21	cell-free assay				10 µM	2

Repeated from above:
Structure (SMILES)	observed	action	method	cells	concentration	inhibition [%]
COc1ccc(C(=O)Nc2c(-c3cccs3)nc3ccccn23)cc1	ligand displacement		radioligand		10 µM	< 50
Brc1ccccc1-c1nnc(CSc2nnnn2-c2ccccc2)o1	ligand displacement		radioligand		10 µM	7
